Experimental data pooled from the literature.
Numbered parts are unrelated; each lists some results of a single study. Substitutions count along the parent as printed.

Block 1
Target: ABI1, truncated, D143A, DHFR fusion (Arabidopsis thaliana)
Method: DHFR PCA, deep sequencing
Sample: yeast
Setting: methotrexate growth selection, single substitutions
Added: (+)-ABA 4.8 µM
Reference: wild-type fitted maximum
Direction: higher = stronger binding
Measurement: relative binding score
Starting sequence: PYL1, truncated, DHFR fusion (Arabidopsis thaliana); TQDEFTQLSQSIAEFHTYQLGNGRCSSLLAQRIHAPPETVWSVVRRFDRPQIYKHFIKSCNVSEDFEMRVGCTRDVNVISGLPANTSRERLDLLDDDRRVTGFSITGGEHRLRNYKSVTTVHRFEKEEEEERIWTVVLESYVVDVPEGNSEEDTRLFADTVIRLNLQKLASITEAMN; partner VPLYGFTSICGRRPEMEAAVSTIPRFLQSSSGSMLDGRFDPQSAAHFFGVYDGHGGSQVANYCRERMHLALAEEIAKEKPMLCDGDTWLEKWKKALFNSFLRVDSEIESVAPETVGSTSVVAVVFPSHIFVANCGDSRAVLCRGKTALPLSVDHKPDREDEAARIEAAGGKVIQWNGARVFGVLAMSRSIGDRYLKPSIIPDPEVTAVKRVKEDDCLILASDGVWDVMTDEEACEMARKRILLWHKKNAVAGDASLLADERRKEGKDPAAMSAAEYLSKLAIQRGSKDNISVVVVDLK
R45C: 14.5%
Q51I: -17.7%
L20K: 77.7%
G23Y: 25.3%
S26M: 47.4%
A175N: 81.8%
R69F: 40.4%
D75W: 76.6%
V100I: 70.1%
E129T: 74.2%
L156I: 85.1%
L91V: -2.28%
I52R: 60.1%
T135A: 21%
F15N: 19.7%
Q19L: 48.3%
T135E: -13.7%
L166C: -1.5%
L93P: 13.5%
E64L: 50.5%
G102S: 65.3%
T160F: 92.1%
D3R: 62.7%
T160R: 18.6%
A30N: 27.4%

Block 2
Target: PABPC1L2, full length, GST fusion (mouse, UniProt A0ABA7IW68)
Method: RNAcompete
Form: RNA
Sample: in vitro
Tested at: 20 nM
Setting: 7-mer, probes averaged, single round
Reference: mean of 7-mers
Direction: higher = stronger binding
Measurement: 7-mer Z-score
Target sequence (chain): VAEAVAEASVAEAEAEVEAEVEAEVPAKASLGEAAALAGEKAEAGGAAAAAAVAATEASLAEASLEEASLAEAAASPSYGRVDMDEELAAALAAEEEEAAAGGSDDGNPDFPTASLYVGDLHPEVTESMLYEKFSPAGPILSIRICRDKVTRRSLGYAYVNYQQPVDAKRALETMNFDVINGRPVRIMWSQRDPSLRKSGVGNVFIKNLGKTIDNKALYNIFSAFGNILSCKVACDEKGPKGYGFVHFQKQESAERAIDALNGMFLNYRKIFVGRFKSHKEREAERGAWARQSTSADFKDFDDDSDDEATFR
UCAAUAC: -0.173
CUAAUUC: -0.269
AAAAGAC: 5.59
CAAUGUC: -0.257
GCCCAUG: -0.407
GGUAUUG: -0.112
GGUCAAG: 0.0642
CGGUAUC: -0.148
ACUUGCG: -0.209
CAUGUGU: -0.277
UUCGUAC: -0.275
AUAGUCU: -0.327
UGCUGAA: 0.215
AUGUUAG: -0.141
CAUAUUU: -0.157
UCUUCCA: -0.378
GGCAUAU: 0.00798

Block 3
Target: Interferon regulatory factor 7, full length, phosphomimetic (IRF7, Homo sapiens, UniProt Q92985, residues 1-503, S471D/S472D/S475D/S476D/S477D/S483D/S484D/S487D)
Method: protein-binding microarray
Form: double-stranded DNA, one strand shown
Sample: in vitro
Tested at: 2200 nM top
Setting: 60-bp whole probe
Added: salmon DNA 0.4 mg/ml
Reference: random background probes
Direction: higher = stronger binding
Measurement: fitted relative affinity
Constant ends, left off below: GCCTAGCAC … GTCTTGATTCGCTTGACGCTGCTG
Construct (chain): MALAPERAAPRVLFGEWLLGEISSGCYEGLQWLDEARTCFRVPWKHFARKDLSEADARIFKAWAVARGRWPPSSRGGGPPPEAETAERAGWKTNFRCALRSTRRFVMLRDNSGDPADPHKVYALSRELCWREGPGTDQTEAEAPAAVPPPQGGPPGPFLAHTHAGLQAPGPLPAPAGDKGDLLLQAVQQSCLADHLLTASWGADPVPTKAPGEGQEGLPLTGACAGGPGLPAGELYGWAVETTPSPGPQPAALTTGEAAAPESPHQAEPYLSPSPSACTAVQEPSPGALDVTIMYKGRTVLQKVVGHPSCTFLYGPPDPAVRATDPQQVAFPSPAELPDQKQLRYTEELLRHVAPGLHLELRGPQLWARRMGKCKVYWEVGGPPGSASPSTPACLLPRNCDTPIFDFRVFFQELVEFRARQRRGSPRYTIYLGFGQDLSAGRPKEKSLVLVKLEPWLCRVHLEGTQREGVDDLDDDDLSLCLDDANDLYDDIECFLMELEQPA
GGTACTCACCTCCAGGCTGAGTGCTAG: -0.292 z-score
GGGATGGTGGGGCTCCTCCTGTGCTAG: -0.915 z-score
TTAGGTTTCCTACTGCCTTAGTGCTAG: 1.2 z-score
TTAGGTATCTACACTGGGTTAGTGCTA: 0.0223 z-score
GACGGACTGGTTATCGGGACGTGCTAG: -0.198 z-score
TTAGGCCTGGGTTTCGGTTAGTGCTAG: 3.74 z-score
TCCTTTATGTACTCTCTACATGTGCTA: 1.91 z-score
GTCACTCTCTGGGCTGTGGGTGTGCTA: 0.203 z-score
GACGGTCTCGGGATCGGGACGTGCTAG: -0.419 z-score
TTAGGTCTCATTATCCTTTAGTGCTAG: 0.777 z-score
GACGATATCGCGTATCGAGACGTGCTA: 0.537 z-score
TTAGGACTGGGTATCGGTCAGTGCTAG: -0.422 z-score
GACGATATCGGTTTTCGAGACGTGCTA: 2.47 z-score
GACGGTCTCCTTCTCCTGATGTGCTAG: 0.961 z-score
CACGGACTGCTTTTCCTGACGTGCTAG: 0.671 z-score
TTAGGTTTCGGGACCGGGTTAGTGCTA: 2.98 z-score
ACACATCTCACTCTAATCTCGTGCTAG: 1.69 z-score
GACGGTCTCTTTTTCCTGACGTGCTAG: 1.3 z-score
TTAGAACTGGGGACTGAATTAGTGCTA: -0.397 z-score
TCATTTATGGTTTTTTTACTGTGCTAG: 1.5 z-score
GACGCTTTCCTTCTCCTGACGTGCTAG: 3.53 z-score
GACGACCTGGGGTTTCGAGACGTGCTA: 0.675 z-score
TGCTATACCACTCTTGCTTTGTGCTAG: 1.31 z-score

Block 4
Target: Sal-like protein 4, full length isoform B (SALL4, Homo sapiens, UniProt Q9UJQ4-2, residues 1-616)
Method: universal PBM
Form: double-stranded DNA, one strand shown
Sample: in vitro
Tested at: not given
Setting: 8-mer, flanks averaged, mean of replicates
Direction: higher = stronger binding
Measurement: E-score
Residues (chain): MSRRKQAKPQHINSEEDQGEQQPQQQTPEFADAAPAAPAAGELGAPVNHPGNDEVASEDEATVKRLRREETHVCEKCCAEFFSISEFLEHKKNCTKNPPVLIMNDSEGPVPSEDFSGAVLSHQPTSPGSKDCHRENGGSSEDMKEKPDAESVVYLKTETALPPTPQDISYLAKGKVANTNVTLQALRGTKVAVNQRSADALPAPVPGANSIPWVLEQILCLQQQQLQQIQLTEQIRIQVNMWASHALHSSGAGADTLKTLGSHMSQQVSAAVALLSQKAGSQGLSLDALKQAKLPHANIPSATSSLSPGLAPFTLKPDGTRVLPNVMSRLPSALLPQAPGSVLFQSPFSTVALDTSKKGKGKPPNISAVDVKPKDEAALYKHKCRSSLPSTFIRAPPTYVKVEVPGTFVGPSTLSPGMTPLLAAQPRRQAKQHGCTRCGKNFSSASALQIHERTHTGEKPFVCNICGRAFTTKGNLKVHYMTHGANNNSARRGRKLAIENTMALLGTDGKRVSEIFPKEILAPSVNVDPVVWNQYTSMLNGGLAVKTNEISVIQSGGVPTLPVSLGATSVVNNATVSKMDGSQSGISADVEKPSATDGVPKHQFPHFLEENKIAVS
ACCACTTA: 0.0579
ACCGCGGA: -0.309
CGGCCGTC: -0.354
CCTAGGTC: -0.221
AGTCGATA: 0.184
GAGGTTAC: -0.0977
AGAATGAA: 0.214
CGAGTTAG: -0.101
TACGATGA: 0.148
CAACCGAC: 0.00709
AAGGCTGC: -0.21
AACGGGTA: 0.0813
GAGACGAA: -0.0286
GAGTTCCA: -0.142
CGGCCAAA: -0.0763
CGCTTATA: 0.104
ACGGCGTG: -0.199
CGATGGAA: -0.0876
AAGGCGGG: -0.214
GCGCGTAA: -0.0427
ACTCTTCA: 0.0871
ACCACGCA: -0.159
CGAGTGCC: -0.254
ATCACGGG: -0.255
CCTCAGAA: -0.0852

Block 5
Target: RNA binding protein fox-1 homolog 2, RRM domain, GST-SBP tag (RBFOX2, Homo sapiens, UniProt O43251-10, residues 100-194)
Method: RNA Bind-n-Seq
Form: RNA
Sample: in vitro
Tested at: 365 nM
Setting: natural RNA segment, single round, ends assumed
Reference: no-protein control
Direction: higher = stronger binding
Measurement: RBNS enrichment (R)
Constant ends, left off below: GGGAGUUCUACAGUCCGACGAUC … UGGAAUUCUCGGGUGCCAA
Construct (chain): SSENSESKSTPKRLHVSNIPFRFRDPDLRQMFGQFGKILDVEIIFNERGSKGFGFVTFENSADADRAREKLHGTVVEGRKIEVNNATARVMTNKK
CACUCACACUCGUCCCCAGCUUAGCACAGAGCUGGAGCGCCCAUUUCUGGAAUUUUCCGUUUGGGAAUCUCCACUUCUGGGGUUUACCUGUUCGGCCUCCUGUCUAUCAG: 0.382
GUGCUUGCCUUCUCUCCAAGGCCAUGGCAUGAGUUCACAGAAUAUAUAUUUUCGGCAGAUUGAGCUUUAGAGAUGCAACGACUUUUCCCUCUGUGCCUGUAGGAAUGCUC: 0.601
UCUUUCAACUUACUUUUCACAGUAGGUUUCAGGGGAACAAAGCCAUGCCUGCUGCCUGCCUCUCUCCUAACAUGGUUCCAUCAAGUAGACACCCUUUGUAUUUGACCUCU: 3.65
AGUAGGUCAUUAAAUAGCUUAGUGAUUUAUCCUCAUAUAGGGCUUAUAAACCCUGUAUGUGUUUAUAUGUGCUUCACAGAGUUCGUGUCAGGCUCAAAGGAGAUAUGUAU: 0.308
GUGUGUGCUGUGGUGCACCGCCUGGCUUUGGGGGUCCCGGAGGCAGGCUGCCUAGACUCACAGCCUCGGGACCGUUGCCACGGCCUGUCUUCUCGUUCAGGCCUGCCUCU: 0.224
UCUUUUGCAGCCGUCUGGGCCGCUUCUCGGUGAGCCGCGGUAGGCGUGGCUGCACGGAGUCACAAGCCUCUUGACAUGUUAGCCAUUUCCAGCGUCCUAACUGACUGUAA: 0.202
GAGAUUUUUAACGUAACUAUUAACACAGUUUUAACAUAAGUUAUCCCACUGGGUUUAAGAGCAUCUUGAAUGUAUAAUCCUUUUUGUAACCCAGGUUGGUUUCUACUUUU: 0.754
CCAACACAUCAAAUAAUGCAUUGAAUAUUUAUGAAAAAGUAUAUUUAUACUCUCAGAUAGUUUGCUCCACAAAUUUUCAUUUCGUGAUUCUGUAUAUAUUGCCCUGAACU: 1.15
AUUUUUAAUAUUUAAGGCCUUGAAAUUAUAUUCCAAGGCAAAUCUAAAUGGGUGUAGUUGUAUAUGCACGAUGUAAUUUAAUGCUAAAGAGUACUUACAGCUUGAGGGAA: 0.564
AUCCCUGAUCUGAGUUGAUUUGUUUGACUGUCUUUGGGGCAAACCUUAGCAGCUCAGUAGAUUCUUCAGGAUAACAGUAAAUGGCUUAUUGUAACUUGAAACACUAUAUU: 0.331
GCCAAUAAUUUAUAGCCUUUCCCUUAAAUCAAGAUUGAGUUUAAAAUUAUAGUUUGUCUUUUGUCUUAACAGUUCUGAAUGCUGUCCUCAAAGUAUAUAAUGUUUCAUGU: 0.483
UUUUGUUUUCUUUUUUCCUUUAAAGAGAAUUUUUGUUUUGUUUUGAUUCUGUUCUCGCUUUUAAAGGAUGCUGAGAUGGUGAUGUUACUCUCCAUUUUUGGUACCAGUUC: 0.806

Block 6
Organism: Saccharomyces cerevisiae
Effect on: cell growth
Method: competitive growth deep sequencing
Form: peptide
Setting: peptide tiling library
Added: cyclin E2-Cln2 fusion
Direction: direction not given
Measurement: enrichment score
LRRQLSFSED: 0.812
VSRNLRSSLKSSLHTL: -2.02
ARKRLELGNLGNPQ: -1.12
GFGFLLFICKLTF: 0.164
RKLDLEGIGR: 0.659
RRVLCFDS: 0.506
PPKPLKKLRFDIEGSD: 0.494
NNIRKALSFDNRGEEH: -0.257
SCCKRKLVVGNGPEGP: -0.243
NFETPEAETPIRSPFK: 0.685
RKLHFEDEVT: 0.944
TTTTSPRTPPPLTVQD: 1.66
PPTFLSTGEIHAFLSS: -0.558
KVKRRLDLDIDGLQKE: 0.301
LRRKLFLDGNGSIS: -1.2
GAEELEDLVHFSVSEL: 2.39

Excerpt of the above (block 2):
UCUUCCA: -0.378
UCAAUAC: -0.173
AUGUUAG: -0.141
CUAAUUC: -0.269
CGGUAUC: -0.148
UGCUGAA: 0.215
UUCGUAC: -0.275
CAUGUGU: -0.277
ACUUGCG: -0.209
GGUAUUG: -0.112
AUAGUCU: -0.327
GGCAUAU: 0.00798
GGUCAAG: 0.0642
AAAAGAC: 5.59
GCCCAUG: -0.407
